Experimental data pooled from the literature.
A part holds a random share of what one study measured. Positions count from the first letter of the parent shown.

Series 1
Target: RNA binding protein fox-1 homolog 2, RRM domain, GST-SBP tag (RBFOX2, Homo sapiens, UniProt O43251-10, residues 100-194)
Technique: RNA Bind-n-Seq
Molecule type: RNA
Sample: in vitro
Tested at: 365 nM
Notes: natural RNA segment, single round, ends assumed
Reference: no-protein control
Direction: higher = stronger binding
Residues (chain): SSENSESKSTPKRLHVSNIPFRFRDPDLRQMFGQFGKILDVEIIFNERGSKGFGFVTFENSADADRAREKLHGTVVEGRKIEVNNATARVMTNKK
Under “RBNS enrichment (R)”, `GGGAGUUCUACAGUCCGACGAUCAAAGAUAACAUAUAUAUCCAACUUUCUGAAAUGAAAUGUUUUUAGAUUACUUUUUCAACUGUAAAUAAUGUACAUUUAAUGUCACAAGAAAAAAAUGUCUUCUGCAAAUUUGGAAUUCUCGGGUGCCAA` is recorded as 0.49.
For `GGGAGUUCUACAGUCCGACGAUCUCUCUUCUUGUAGUCUCUAUGGCGUGUCUUUAUGGUGUAAUAAGGUUCUCACGGGUUCAAUCUUUUGUGUUUAGAGAGGCCACGGUUCAGACAAUGGUAUAUAUUUUUGUUGGAAUUCUCGGGUGCCAA`, “RBNS enrichment (R)” read 0.523.
`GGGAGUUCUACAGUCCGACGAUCAGGGUGGUGAGACCCUUCCUGGCUCCCCUGCUUUGUGAGUUAGGCGUGCUGGGGCACCCUCCUGGCCAGGUGGUACUUUGGGGACUUGGGUGUUUGCAUCAUAAUGUCAUUGGAAUUCUCGGGUGCCAA` — result for “RBNS enrichment (R)”: 0.563.
Under “RBNS enrichment (R)”, `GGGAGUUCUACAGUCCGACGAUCUUUUCUUUGGAUCCCUGUCCAAUAACCUCUGUGGAAUCUCAUUCCCUAAUUGUUGAUACUCAUUUUCUCCGUUUGCAAAAUGAAGAUACUCAUUGUUAGGAUCCUACUGCUGGAAUUCUCGGGUGCCAA` is recorded as 0.332.
`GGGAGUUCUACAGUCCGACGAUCCAGGCUGCCUAGACUCACAGCCUCGGGACCGUUGCCACGGCCUGUCUUCUCGUUCAGGCCUGCCUCUGACAGCACUCACCAUGAGGACAUUCCAUCCUUCACCCCCUCCUUGGAAUUCUCGGGUGCCAA`: “RBNS enrichment (R)” 0.362.
`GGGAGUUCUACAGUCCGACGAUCCAGGUGGAGCUUCAGUUAGUACCCGAGGGAUUCCCCUGGCACAAGCAUUAUAGGAAUUAGUCCACCACUGGCGUGGGUGAGCAGCCAGGUAAUGGGAAUUGAUCAGUGCCUGGAAUUCUCGGGUGCCAA` — result for “RBNS enrichment (R)”: 1.21.
`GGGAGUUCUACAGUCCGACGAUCCCCUCCCUCCGCUGAGCAUGUGAUGUCACCCCCUCUGUUUGGAGCUUCUUUAGGUCAAAGAAAUCAAUUGCUUUCCAUAGAGCUGAUACUGUGAACAUUCGAAUGCAUCUUGGAAUUCUCGGGUGCCAA` — result for “RBNS enrichment (R)”: 4.37.
`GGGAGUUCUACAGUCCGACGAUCGGUUCUUCCUAGGGUGGCCUUGGCUCCCUGAAGGAAUCUGAAAUGCUGACCCUGUCACAACCUCCCAGCACAGCUUUGGAAUGAGACAUCAGCCUGGCCUCCAGCAGAGCUGGAAUUCUCGGGUGCCAA`: “RBNS enrichment (R)” 0.223.

Series 2
Target: RING finger protein unkempt homolog, zinc fingers 1-6, GST-SBP tag (UNK, Homo sapiens, UniProt Q9C0B0, residues 30-357)
Technique: RNA Bind-n-Seq
Molecule type: RNA
Sample: in vitro
Tested at: not given
Notes: RNA with constant flanks, human and mouse sites, ends assumed
Reference: input RNA pool
Direction: higher = stronger binding
Target sequence (chain): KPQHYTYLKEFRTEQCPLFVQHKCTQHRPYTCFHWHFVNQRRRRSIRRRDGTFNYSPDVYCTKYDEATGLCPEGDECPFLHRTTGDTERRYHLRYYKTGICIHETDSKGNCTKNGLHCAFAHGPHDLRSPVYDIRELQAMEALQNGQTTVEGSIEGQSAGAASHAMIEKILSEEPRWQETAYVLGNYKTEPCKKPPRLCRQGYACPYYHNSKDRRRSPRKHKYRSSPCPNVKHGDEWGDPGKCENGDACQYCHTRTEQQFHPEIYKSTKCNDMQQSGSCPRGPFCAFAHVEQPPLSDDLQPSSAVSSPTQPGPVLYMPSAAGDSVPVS
`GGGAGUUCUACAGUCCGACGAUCUAUGACCUGGUUGCAGGGAGUCAAUGCCUGAAGAGCAGUUACGUCCUCAGCAAAUCCCGAGCCCUGGAGCAUUUUCCCAUGCUCCAGAAGGACAAGCUGGUAGGCGCCAUUGUCUACUAUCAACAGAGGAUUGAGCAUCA` gave a bound/input enrichment of 0.0924 ratio.
`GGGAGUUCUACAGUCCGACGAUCUAAGAGAUUAUGGCAUUUGAUACUCACCAUGUUAAAAAACGGAACUUCUCUAAUAGUAUUGAUCUUCCUAGAAAGAGGAUCUCUAACUUCACCAGUAAGAACAUGAAGGAGGUUAAGAGACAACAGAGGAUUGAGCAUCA` gave a bound/input enrichment of 0.444 ratio.
For `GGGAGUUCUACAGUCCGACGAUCCCAGGGCAACACAGAGACCCCGAGGAACCCAGGUUCCGGAGAACAAGAUCGUUGGAAUGCCAAGAUGCUCUCGAAACAGCAGCCCGAGUUGAGGGGCUUUCCCUGGAUAUCUCUGUGCAUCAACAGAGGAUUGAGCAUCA`, the bound/input enrichment was 0.192 ratio.
For `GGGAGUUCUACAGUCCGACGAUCACAGAUUUACUGAGAUUAUUUGAAUAUGGAGGUUUCCCACCAGAAGCCAACUAUCUUUUCUUAGGAGAUUAUGUGGACAGAGGAAAGCAGUCUUUGGAAACCAUUUGUUUGCUAUUGGCUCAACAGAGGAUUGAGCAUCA`, the bound/input enrichment was 0.608 ratio.
With `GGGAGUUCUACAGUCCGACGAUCGAAGUCAGAAAGAAAUGUGCUGAGGAGGCCCAACUGAUCUCUUCUCUGAAAGCUGAAUUAACUAGUCAGGAAUCGCAGAUCUCCACUUACGAAGAAGAAUUGGCAAAAGCUAGAGAAGAGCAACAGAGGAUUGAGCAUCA` the bound/input enrichment was 0.298 ratio.
For `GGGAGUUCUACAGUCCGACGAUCUGGAGUCUGGCUUUGAAAGAUUUCAUUGUUGGUAGAAAUAACAGGUUGAGAAAGAGGGAGUUAGCAUCACCUAAAACCUGCACGUGAACAAGGGUUGACAUGAUACACUAUGGCCUUAGACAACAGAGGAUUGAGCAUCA`, the bound/input enrichment was 0.735 ratio.
`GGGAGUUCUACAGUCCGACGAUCCCAAGUGAUUCAUUCCAAGGACAGGCAGCCCAGUCUGGUGUUUGGAAUGACGACAGUAUGUUAGGGCCUAGUCAAAAUUUUGAAGCUGAGUCAAUUCAAGAUAAUGCGCAUAUGGCAGAGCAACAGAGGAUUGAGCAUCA` gave a bound/input enrichment of 0.823 ratio.
With `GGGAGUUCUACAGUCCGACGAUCAGGUUACUUAUGCAUCAUAUCAGAGAUUGUUUACCAGAGCUGAAAACAAGAAUAAAUGUCUUAGCUGCUCAGUAUCAGUCUCUUCUAAAUAGCUAUGGUGAACCGGUGGAUGAUAAAAGUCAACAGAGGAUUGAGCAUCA` the bound/input enrichment was 0.204 ratio.

Series 3
Target: CCND1, cyclin fold, Cln2 fusion (human)
Technique: yeast growth competition, sequencing
Sample: yeast
Notes: weak parent motif
Reference: not given
Direction: higher = stronger binding
Parent: PKMYT1 docking peptide (human); SFEPRNLLSLFED; partner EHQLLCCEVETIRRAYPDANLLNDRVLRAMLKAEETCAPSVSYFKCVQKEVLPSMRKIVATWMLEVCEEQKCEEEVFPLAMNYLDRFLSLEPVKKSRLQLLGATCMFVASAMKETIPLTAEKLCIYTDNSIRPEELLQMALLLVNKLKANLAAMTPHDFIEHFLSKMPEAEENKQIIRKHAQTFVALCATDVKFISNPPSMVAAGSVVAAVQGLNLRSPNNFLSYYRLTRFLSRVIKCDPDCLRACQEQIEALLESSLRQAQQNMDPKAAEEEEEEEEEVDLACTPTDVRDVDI
`TFEPRNLLSLFED [S1T]` — result for “normalised enrichment score”: 0.695.
`SFEPRNLLSMFED [L10M]` — result for “normalised enrichment score”: 0.988.
`SFEPRNLLSLFEM [D13M]`: “normalised enrichment score” 1.57.
`SFEPRNTLSLFED [L7T]`: “normalised enrichment score” 1.02.
`RFEPRNLLSLFED [S1R]` — result for “normalised enrichment score”: -0.251.
Under “normalised enrichment score”, `SFLPRNLLSLFED [E3L]` is recorded as 0.685.
Under “normalised enrichment score”, `GFEPRNLLSLFED [S1G]` is recorded as 0.387.
For `SFEPRNELSLFED [L7E]`, “normalised enrichment score” read 0.336.
Under “normalised enrichment score”, `SFEPRNLTSLFED [L8T]` is recorded as 1.4.
Under “normalised enrichment score”, `SFEPRNLLSLFEP [D13P]` is recorded as 0.824.
For `SFEPRNLLSLMED [F11M]`, “normalised enrichment score” read 0.914.
`SFEPKNLLSLFED [R5K]`: “normalised enrichment score” 1.31.
For `SFPPRNLLSLFED [E3P]`, “normalised enrichment score” read 1.74.
`SFEPRNLLSWFED [L10W]`: “normalised enrichment score” 2.19.
Under “normalised enrichment score”, `SFEPRNLLSLNED [F11N]` is recorded as 0.777.
`SFEPRNLLSLFWD [E12W]`: “normalised enrichment score” 0.921.
For `SFEPRNLLSLHED [F11H]`, “normalised enrichment score” read 1.69.
`SFEPRNRLSLFED [L7R]` — result for “normalised enrichment score”: 0.92.
`SFEPRNLLSLIED [F11I]` — result for “normalised enrichment score”: 1.14.

Series 4
Target: ABI1, truncated, D143A, DHFR fusion (Arabidopsis thaliana)
Technique: DHFR PCA, deep sequencing
Sample: yeast
Notes: methotrexate growth selection, single substitutions
Added: (+)-ABA 1.4 µM
Reference: wild-type fitted maximum
Direction: higher = stronger binding
Parent: PYL1, truncated, DHFR fusion (Arabidopsis thaliana); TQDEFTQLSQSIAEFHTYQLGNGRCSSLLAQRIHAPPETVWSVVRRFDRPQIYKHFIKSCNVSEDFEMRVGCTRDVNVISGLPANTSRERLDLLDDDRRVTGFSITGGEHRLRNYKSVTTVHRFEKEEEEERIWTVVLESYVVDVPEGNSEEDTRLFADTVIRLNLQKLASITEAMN
Under “relative binding score”, `K168G` is recorded as 16.9%.
For `A175C`, “relative binding score” read 38.8%.
`L20A`: “relative binding score” 68.1%.
`F157Y`: “relative binding score” 32.7%.
For `F124T`, “relative binding score” read 9.64%.
`D48L` — result for “relative binding score”: -9.58%.
`F56N`: “relative binding score” 1.33%.
`T160C` — result for “relative binding score”: 20.5%.
For `K116H`, “relative binding score” read 32.4%.
For `S104F`, “relative binding score” read -2.84%.
`R155I` — result for “relative binding score”: 25.9%.
Under “relative binding score”, `D95R` is recorded as -3.06%.
For `F47G`, “relative binding score” read 7.79%.
`D75G` — result for “relative binding score”: 1.95%.
`S150I`: “relative binding score” -19.2%.
Under “relative binding score”, `S42Y` is recorded as -4.3%.
For `N61Y`, “relative binding score” read 58.6%.
`I57L`: “relative binding score” 23.3%.
`V136I` — result for “relative binding score”: 61.8%.
